Experimental data gathered from unrelated publications.
Lines come from different studies, so protocols differ. Numbers after ± are the reported error.
Cell line: CAKI-1

| Compound | test | conditions | scale | quantity | value |
| --- | --- | --- | --- | --- | --- |
| CCN(C(=O)c1cc(F)ccc1Oc1nncnc1N1CCC2(C1)CN([C@H](CCCN(C)CCOC)C(C)C)C2)C(C)C | cell growth or viability | 72 h | – | GI50 | > 10000 nM |
| CC(C)c1ccc(N(C)c2ccc3c(c2)OCC[C@H]3CNc2cnccc2C(=O)O)cc1 | cell viability, CellTiter-Glo | 7 days | – | IC50 | 4.43 nM |
| CNC(NN=Cc1ccc([N+](=O)[O-])o1)=[S+][Au-][Cl] | annexin V/PI flow cytometry | 5 µM, 72 h | – | cell fraction ANV+/PI− | 9.9 ± 2.1% |
| O=C(Nc1nnc2c1c(-c1ccc(Cl)cc1)nc1sc(=Cc3ccco3)c(=O)n12)c1ccccc1 (mixture of isomers) | SRB | 10 µM, NCI60 single-dose screen | reference: untreated | cell growth | 42.2% |
| CNC(=S)NN=Cc1ccc([N+](=O)[O-])o1 | cell growth or viability, resazurin | – | – | IC50 | 22500 nM |
| C1=[N+]2CCCC[N+]3=Cc4ccc5[n]4[Au-]23[n]2c1ccc2-c1nc2ccccc2nc1-5.F[P-](F)(F)(F)(F)F | NCI60 five-dose screen | – | – | TGI | 4 -log M |
| CN(C)CCN1CCN(c2ccc3nc(-c4ccc5nc(-c6ccc(C(F)(F)F)cc6)[nH]c5c4)[nH]c3c2)CC1 | SRB | 10 µM, 48 h | – | growth percent | 73.6% |
| Cc1ccc([N+](=O)[O-])cc1S(=O)(=O)N(C)/N=C/c1cnc2ccc(Br)cn12 | MTS | NCI60 panel | – | IC50 | 350 nM |
| CCNC(=S)NN=Cc1ccc([N+](=O)[O-])o1 | cell growth or viability, resazurin | – | – | IC50 | 42500 nM |
| O=C(NCc1cc(F)cc(F)c1)[C@@]1(O)CCN(c2ccc3[nH]ccc3c2)C1=O | cell growth or viability | – | – | IC50 | 170 nM |
| CCCC(CCC)C(=O)OCc1cn(-c2cc3ccccc3oc2=O)nn1 | NCI60 single-dose screen | 10 µM | – | growth percentage | 97.7% |
| CNS(=O)(=O)Nc1nccc(Cc2c(C)c3ccc(Oc4ncccc4F)cc3oc2=O)c1F | cell viability | 7 days | – | IC50 | > 1000 nM |
| Cn1ncc(-c2ccc3c(=O)[nH]nc(CN)c3c2)c1-c1c(F)c(Cl)cc(OC2CC2)c1C#N | cell viability, inhibitor, CellTiter-Glo | 120 h, baseline-subtracted | – | IC50 | 1530 nM |

For quick reference, copied from above:
| Compound | test | conditions | scale | quantity | value |
| --- | --- | --- | --- | --- | --- |
| CNC(=S)NN=Cc1ccc([N+](=O)[O-])o1 | cell growth or viability, resazurin | – | – | IC50 | 22500 nM |
